Assay results of several laboratories.
A part holds a random share of what one study measured.

Set 1 — method: protein binding microarray; molecule type: double-stranded DNA, one strand shown; medium: in vitro; tested at: not given; relative to: not given; reading: higher = stronger binding; measurement: E-score
Target: Histone acetyltransferase KAT6A, winged helix 1, GST fusion (KAT6A, Homo sapiens, UniProt Q92794, residues 1-85)
Notes: 8-mer, flanks averaged, mean of 2 arrays, mostly near background
Residues (chain): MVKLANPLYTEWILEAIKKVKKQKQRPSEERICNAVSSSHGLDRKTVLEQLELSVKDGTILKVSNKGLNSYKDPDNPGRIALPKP
CCGTACCA: 0.235
GCTTGTAA: -0.0193
CCAACCTA: -0.182
CTGCCAGA: -0.2
ACCATTAA: -0.0656
AAATGCAA: -0.238
AGGAACGC: 0.211
CCCCAACC: -0.121
ACAGCGGT: 0.21
ATATTAAG: -0.103
CATTAGCA: -0.239
ACGTGTTC: -0.125
GACGCAAA: 0.246
AAATTATC: -0.0482
CTCATCCA: -0.222
GCAGGGGC: 0.0677
AATCAATC: -0.0504
AAGCGCTT: 0.314
AAAAGTGC: -0.0486
ATCTCACG: 0.0595
ACCTTTAG: -0.116
TAGTTTAA: -0.017
GGCGGAGA: 0.293
AGACTTGA: -0.263
CGGCCATC: 0.209

Set 2 — method: RNA Bind-n-Seq; molecule type: RNA; medium: in vitro; tested at: 365 nM; relative to: no-protein control; reading: higher = stronger binding; measurement: RBNS enrichment (R)
Target: RNA binding protein fox-1 homolog 2, RRM domain, GST-SBP tag (RBFOX2, Homo sapiens, UniProt O43251-10, residues 100-194)
Notes: natural RNA segment, single round, ends assumed
Target sequence (chain): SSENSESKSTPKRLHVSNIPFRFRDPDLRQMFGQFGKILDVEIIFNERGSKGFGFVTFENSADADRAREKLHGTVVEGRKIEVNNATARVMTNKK
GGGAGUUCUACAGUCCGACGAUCCCCCCUCCUGCAACCAGGCUACCUGAAGACCUUUAUGGAGGUGAAAGGGAAACUAAAUUGUUCCCUGGAUUCCAGGAGAUGGUCGGCACAGAUGGUCGUCACGUGGGACCUGGAAUUCUCGGGUGCCAA: 0.286
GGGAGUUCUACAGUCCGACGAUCUGGACAGAAAGGGGACCCGACUGCUUUGGACCUAGAUGGCCUAUUGCGGCUGGAGGAUCCUGAGGACAGGAGAGGGGCUUCGGCUGACCAGCCAUAGCACUUACCCAUAGUGGAAUUCUCGGGUGCCAA: 0.214
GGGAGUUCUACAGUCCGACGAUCCAAUUCACAGCACAGUACACACAAAAACCUUGGCAUAAGACAGAGAAGGUUCUUCUUAUUUUGUGGGCUGGUUGCUGUAGAAACACAUAACAAAGGGCAGCCCUCCACUUUGGAAUUCUCGGGUGCCAA: 0.969
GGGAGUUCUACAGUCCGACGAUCGGUUGUCUGGCGCCCUUUUCCUCCAGCCUAAACUGACAUCAUCCUAUGGACUGAGCCGGCCACUCUCUGGCCGAAGUGGCCGCAGGCUGUGCCCCCGAGCUGCCCCCACCUGGAAUUCUCGGGUGCCAA: 0.367
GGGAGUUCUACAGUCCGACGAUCACUUGUAUUGACCAAAGUUUUGCAGCUCUACUAUAUUCUGUGCUCAGGACUAAAAUGCUGUUAAUUUUUUUUUUUUUUUCCAGUGCUGUGCAUAUAUUCUGUGAUGGGAAUGGAAUUCUCGGGUGCCAA: 0.812
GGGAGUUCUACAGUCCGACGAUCAGCCUUUAUUCGUCAACGGCCUCUGCUCAGCCAGGCCCUUCCAGACAAAAGGCACUGAGGAACUUGCACCCCUUCCAGGGAGGGUGUCCAAGUAGCACCGUUCCUGCCCAUGGAAUUCUCGGGUGCCAA: 0.278
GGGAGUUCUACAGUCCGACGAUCUUGGGUGGAGGCAAAACACUAAUAAAAGGGCUAAAAAGGAAAAUGAUGCUUUUCUUCUAUAUUCUUACUCUGUACAAAUAAAGAAGUUGCUUGUUGUUUGAGAAGUUUAAUGGAAUUCUCGGGUGCCAA: 0.854
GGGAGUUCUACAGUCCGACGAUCGGCCAGAAAGGCAAUUUGGCUAAAAAAUGAAUAAGACUACUUCUAAUGUAACUAAGCAUCUCCACUAUGGUGUGUGCCUUUUAUAAAGGAAAAGAGAGAAAAAGGCAAAGUGGAAUUCUCGGGUGCCAA: 0.406
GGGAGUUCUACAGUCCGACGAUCAAGCUCCUUUAUCCUAUAGAUUCUAUCUUUAUGUUCAUCUGAAAUGAACUAUUCAUCAGUACUUUCUCCUCCCAUCCUAAGCUUCUCAUUUUAGGAACUGACAUGAUAAGUGGAAUUCUCGGGUGCCAA: 0.672
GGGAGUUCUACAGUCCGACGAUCGAUUUGUUGCCAUGUGCACUUUGGGAUUUUGUAAUUGUUAAAAGAAAAUAUUUCUUUUAUGAUUUUCUUCUCCCACUCCCUGUCCUCCAGUGUUCUGUUAAUAUUAUUUGUGGAAUUCUCGGGUGCCAA: 0.471
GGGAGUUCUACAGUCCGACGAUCAAGGGAAGCCACCUUCCAAGAACUGGAACAUGUGCAUCUUUUGUGCCACCUUGUACAAAGCCAGCUGACCAGCCCCCGCCUCCUCACCACACCCCAGCUCCUAUCUUCUGUGGAAUUCUCGGGUGCCAA: 0.811
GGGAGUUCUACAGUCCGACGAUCGAGAGCAACGCUGAGCUGGGUCCCUAGCCUGGGCAGUGAUUGCCACUGCCACGUGGACCCCUAUGCGUGCGCAGAGGGCAGCGGGUAUGUGGCUUUGCAGGCCCGGCCCAUGGAAUUCUCGGGUGCCAA: 0.631

Set 3 — method: universal PBM; molecule type: double-stranded DNA, one strand shown; medium: in vitro; tested at: not given; reading: higher = stronger binding; measurement: E-score
Target: Sal-like protein 4, full length isoform B (SALL4, Homo sapiens, UniProt Q9UJQ4-2, residues 1-616)
Notes: 8-mer, flanks averaged, mean of replicates
Construct (chain): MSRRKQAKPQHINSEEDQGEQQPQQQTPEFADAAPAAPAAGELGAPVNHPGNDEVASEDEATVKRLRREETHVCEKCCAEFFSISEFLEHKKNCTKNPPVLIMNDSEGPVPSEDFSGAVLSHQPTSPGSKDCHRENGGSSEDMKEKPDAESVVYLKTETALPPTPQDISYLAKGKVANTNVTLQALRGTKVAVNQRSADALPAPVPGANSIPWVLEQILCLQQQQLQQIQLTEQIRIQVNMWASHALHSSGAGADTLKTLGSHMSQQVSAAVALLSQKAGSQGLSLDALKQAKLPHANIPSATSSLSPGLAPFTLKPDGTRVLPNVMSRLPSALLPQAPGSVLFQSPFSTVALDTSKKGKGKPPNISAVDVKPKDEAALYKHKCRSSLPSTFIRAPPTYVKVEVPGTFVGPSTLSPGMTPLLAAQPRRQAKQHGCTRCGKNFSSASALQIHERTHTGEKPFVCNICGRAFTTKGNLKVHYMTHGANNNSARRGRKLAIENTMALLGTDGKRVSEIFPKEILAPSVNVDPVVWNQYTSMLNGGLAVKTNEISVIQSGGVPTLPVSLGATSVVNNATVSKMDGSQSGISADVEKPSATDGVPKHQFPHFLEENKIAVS
TATCCCGA: -0.0593
TGAGGAAA: 0.15
TATGTTCA: 0.281
CGAGCAAA: -0.162
CGATCAGC: -0.182
ATCACGAA: 0.134
GACCGGTA: -0.275
CAGTACCA: -0.0972
CTCCGCTC: -0.136
CTGTCGAA: -0.071
CTATTTAC: 0.2
CCGGGTTC: -0.381
TGTCCTAA: 0.0808
GAAACGAC: -0.0838
ATTCCCAC: 0.0642
CGACAAAC: 0.0372
GCCTTCAC: 0.0114
CACTCTCA: 0.00152
CCAATGCG: -0.12
CAGCCAAA: 0.062
TTGACCAA: 0.00613
AGCAGTGA: -0.105
AGCTCTCG: -0.128
CAATTGTG: 0.126
ACGGGGTC: -0.253

Set 4 — method: RNA Bind-n-Seq; molecule type: RNA; medium: in vitro; tested at: 200 nM; notes: whole 134-nt RNA, ends assumed; added: 150 mM LiCl; relative to: input library; reading: higher = stronger binding; measurement: log2 enrichment; library: 7-deaza-guanosine replaces G
Target: Ras GTPase-activating protein-binding protein 1, full length (G3BP1, Homo sapiens, UniProt Q13283)
UniProt Q13283, sequence (whole entry, looked up): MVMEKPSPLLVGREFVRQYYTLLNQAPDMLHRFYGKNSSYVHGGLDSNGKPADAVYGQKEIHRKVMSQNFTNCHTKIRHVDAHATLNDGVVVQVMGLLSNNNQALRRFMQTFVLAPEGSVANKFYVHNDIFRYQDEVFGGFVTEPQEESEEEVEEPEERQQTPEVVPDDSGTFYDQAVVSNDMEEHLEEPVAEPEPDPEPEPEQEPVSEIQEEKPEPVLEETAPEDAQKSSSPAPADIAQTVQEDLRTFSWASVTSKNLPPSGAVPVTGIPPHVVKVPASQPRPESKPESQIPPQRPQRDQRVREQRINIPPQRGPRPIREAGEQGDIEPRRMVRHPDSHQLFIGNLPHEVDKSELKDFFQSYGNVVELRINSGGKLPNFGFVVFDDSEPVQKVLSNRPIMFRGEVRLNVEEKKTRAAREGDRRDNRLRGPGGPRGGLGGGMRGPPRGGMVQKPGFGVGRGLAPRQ
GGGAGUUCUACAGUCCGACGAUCUGGAGCACAGGGCGAGCUCUCCUCCGCCCUGCAGCCUCAGGUAAGGAUCCGGACCUUCACUGCUGCCCCAACUGGGGCUCCUCAGCUCGGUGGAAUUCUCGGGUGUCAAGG: 0.235
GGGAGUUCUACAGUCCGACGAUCGUCCUGUGCUACACAUCGUAUGUACCGAAUCGGGGAGGGGAAAAAGGGGUUUUUGGGGAAAGUAUUAUGUUACGCCGUUCGGAUCUGCACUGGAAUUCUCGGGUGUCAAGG: 0.221
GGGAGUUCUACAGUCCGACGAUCUUCUUUGCCCAACGGGGCCGUGGAUACCUGCCUUUUAAUUCUUUUUUAUUCGCCCAUCGGGGCCGCGGAUACCUGCUUUUUAUUUUUUUUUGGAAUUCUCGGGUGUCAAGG: 1.13
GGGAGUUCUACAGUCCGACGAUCAAGUCCUGUGCUACACAUCGUAUGUACCGAAUCGGAGGUUUUUUUGGAAAAAAAGGAAAGUAUUAUGUUACGCCGUUCGGAUCUGCACUUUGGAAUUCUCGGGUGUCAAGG: -1.13
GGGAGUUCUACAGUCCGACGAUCCACAGACAACACGCACCCACACAGACACAGAGGGAAGGGGUUGGGAUGGGGCCAGGGUGCACAGCAGGGCGGGGUAGGACCCCAGCCCCUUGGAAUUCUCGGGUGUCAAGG: 0.911
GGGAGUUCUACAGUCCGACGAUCUCCUGUGCUACACAUCGUAUGUACCGAAUCGGGUUUUUGGGUUUUUGGGAAAAAAAGGGAAAGUAUUAUGUUACGCCGUUCGGAUCUGCAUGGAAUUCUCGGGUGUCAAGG: -0.0405
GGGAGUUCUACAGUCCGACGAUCGUCCUGUGCUACACAUCGUAUGUACCGAAUCGGAAAAAGGAAAAAGGGGAAAAAGGGGAAAGUAUUAUGUUACGCCGUUCGGAUCUGCACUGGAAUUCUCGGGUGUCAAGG: -0.0447
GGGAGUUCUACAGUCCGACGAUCCCUCAAGUCCUGUGCUACACAUCGUAUGUACCGAAUCGGUGGUGGAAAAAGGAAAGUAUUAUGUUACGCCGUUCGGAUCUGCACUUCCAGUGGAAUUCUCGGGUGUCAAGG: 0.113
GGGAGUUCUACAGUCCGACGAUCCAAGUCCUGUGCUACACAUCGUAUGUACCGAAUCGGGUUUGGGUUUUUGGGUGGGAAAGUAUUAUGUUACGCCGUUCGGAUCUGCACUUCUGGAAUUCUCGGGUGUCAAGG: -0.414
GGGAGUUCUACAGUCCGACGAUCCCUGUGCUACACAUCGUAUGUACCGAAUCGGGGUUUUUUUGGGGAAAGGGGUUUUUGGGGAAAGUAUUAUGUUACGCCGUUCGGAUCUGCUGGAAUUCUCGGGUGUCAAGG: -0.00197
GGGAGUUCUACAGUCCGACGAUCCUGUGCUACACAUCGUAUGUACCGAAUCGGGAAAAAAAGGGAAAAAAAGGGUUUUUUUGGGAAAGUAUUAUGUUACGCCGUUCGGAUCUGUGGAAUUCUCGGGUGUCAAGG: -1.08

Set 5 — method: protein-binding microarray; molecule type: double-stranded DNA, one strand shown; medium: in vitro; tested at: not given; reading: higher = stronger binding; measurement: E-score
Target: Transcriptional repressor CTCF (CTCF, Homo sapiens, UniProt P49711, residues 1-727, full length assumed)
Notes: k-mer, scored over probes, only values ≥0.25
Target sequence (chain): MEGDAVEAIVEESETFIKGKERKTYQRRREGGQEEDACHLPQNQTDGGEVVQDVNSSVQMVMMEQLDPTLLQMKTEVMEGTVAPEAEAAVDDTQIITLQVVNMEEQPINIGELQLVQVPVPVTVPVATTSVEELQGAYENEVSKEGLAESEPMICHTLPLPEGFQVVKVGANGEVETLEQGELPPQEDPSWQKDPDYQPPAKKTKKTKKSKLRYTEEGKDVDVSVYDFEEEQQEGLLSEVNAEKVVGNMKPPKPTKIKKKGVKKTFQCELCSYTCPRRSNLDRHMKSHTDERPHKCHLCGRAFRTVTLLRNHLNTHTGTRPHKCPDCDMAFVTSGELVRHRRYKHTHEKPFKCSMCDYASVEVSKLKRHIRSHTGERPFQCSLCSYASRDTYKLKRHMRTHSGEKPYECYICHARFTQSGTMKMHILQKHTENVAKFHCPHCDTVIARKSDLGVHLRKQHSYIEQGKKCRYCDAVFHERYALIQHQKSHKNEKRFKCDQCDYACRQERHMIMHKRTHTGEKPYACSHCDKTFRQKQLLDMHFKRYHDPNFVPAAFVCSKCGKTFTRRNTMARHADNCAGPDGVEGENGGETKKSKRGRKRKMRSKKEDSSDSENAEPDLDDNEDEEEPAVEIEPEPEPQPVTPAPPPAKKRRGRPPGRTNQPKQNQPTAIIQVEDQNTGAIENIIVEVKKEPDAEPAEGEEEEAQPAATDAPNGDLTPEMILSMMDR
CGCATATC: 0.319
AGATTAAT: 0.256
CTGGCGGC: 0.281
GTGCAATA: 0.264
ATTTACCG: 0.272
AATAAATT: 0.308
GCGCACAA: 0.405
GTACTACA: 0.281
ATCATGAT: 0.269
GACTAATA: 0.27
TAATACAA: 0.352
GTTAATAA: 0.291
TATCTCAA: 0.307
ACTGAAAC: 0.256
GTAATCTA: 0.349
GAATATTC: 0.269
CATGATAA: 0.287
CACCGGAA: 0.296
TATTGTAA: 0.278
TGCAATAA: 0.288

Repeated from above (set 1):
CCCCAACC: -0.121
ACAGCGGT: 0.21
ATATTAAG: -0.103
CATTAGCA: -0.239
ACGTGTTC: -0.125
GACGCAAA: 0.246
AAATTATC: -0.0482
CTCATCCA: -0.222
